Measured values pooled from the literature.
Protocols differ between the studies behind these lines. Several values in a cell are separate wells, animals, samples, runs or records.
Sequence of UniProt Q02880 (whole entry, looked up): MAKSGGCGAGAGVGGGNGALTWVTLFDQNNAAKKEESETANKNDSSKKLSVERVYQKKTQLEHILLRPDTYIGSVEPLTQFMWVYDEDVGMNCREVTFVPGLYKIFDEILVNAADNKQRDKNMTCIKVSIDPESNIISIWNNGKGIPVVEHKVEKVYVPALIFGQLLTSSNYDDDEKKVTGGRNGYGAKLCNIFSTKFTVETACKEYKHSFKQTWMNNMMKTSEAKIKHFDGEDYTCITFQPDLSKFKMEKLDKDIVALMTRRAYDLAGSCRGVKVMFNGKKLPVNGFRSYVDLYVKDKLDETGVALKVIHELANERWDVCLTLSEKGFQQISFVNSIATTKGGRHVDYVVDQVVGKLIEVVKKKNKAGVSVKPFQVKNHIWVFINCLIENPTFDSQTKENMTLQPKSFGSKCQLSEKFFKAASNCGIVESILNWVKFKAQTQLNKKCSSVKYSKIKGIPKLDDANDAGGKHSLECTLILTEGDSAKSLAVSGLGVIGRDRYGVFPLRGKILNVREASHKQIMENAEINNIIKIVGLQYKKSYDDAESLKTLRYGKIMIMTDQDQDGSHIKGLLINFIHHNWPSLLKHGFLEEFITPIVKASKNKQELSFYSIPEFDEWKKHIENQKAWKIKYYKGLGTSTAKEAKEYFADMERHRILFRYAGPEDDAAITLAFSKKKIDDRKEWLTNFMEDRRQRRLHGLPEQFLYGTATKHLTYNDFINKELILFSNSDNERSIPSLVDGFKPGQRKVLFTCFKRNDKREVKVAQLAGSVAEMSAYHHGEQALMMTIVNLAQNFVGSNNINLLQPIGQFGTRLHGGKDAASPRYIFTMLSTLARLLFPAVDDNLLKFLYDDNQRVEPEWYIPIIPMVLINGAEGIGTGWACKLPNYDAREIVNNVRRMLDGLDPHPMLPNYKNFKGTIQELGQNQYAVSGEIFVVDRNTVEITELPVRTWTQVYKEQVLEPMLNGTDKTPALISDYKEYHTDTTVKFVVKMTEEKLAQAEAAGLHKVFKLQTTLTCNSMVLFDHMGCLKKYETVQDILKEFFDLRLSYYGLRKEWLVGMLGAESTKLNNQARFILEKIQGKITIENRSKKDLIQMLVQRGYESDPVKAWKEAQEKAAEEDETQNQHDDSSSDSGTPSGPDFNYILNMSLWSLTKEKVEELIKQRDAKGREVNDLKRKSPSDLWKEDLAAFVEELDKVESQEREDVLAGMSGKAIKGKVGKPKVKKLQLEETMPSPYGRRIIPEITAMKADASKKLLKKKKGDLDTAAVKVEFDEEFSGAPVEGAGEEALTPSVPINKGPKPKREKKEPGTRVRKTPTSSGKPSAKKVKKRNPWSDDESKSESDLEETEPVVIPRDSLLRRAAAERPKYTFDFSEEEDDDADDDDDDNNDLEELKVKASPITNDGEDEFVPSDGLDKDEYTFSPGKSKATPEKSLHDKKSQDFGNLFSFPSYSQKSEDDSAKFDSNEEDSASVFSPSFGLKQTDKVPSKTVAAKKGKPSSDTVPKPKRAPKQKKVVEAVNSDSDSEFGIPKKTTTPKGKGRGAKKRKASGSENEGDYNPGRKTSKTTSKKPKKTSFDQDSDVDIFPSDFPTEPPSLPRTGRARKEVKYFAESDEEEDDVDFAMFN
Sequence of UniProt Q8A1G0 (whole entry, unmodified, looked up): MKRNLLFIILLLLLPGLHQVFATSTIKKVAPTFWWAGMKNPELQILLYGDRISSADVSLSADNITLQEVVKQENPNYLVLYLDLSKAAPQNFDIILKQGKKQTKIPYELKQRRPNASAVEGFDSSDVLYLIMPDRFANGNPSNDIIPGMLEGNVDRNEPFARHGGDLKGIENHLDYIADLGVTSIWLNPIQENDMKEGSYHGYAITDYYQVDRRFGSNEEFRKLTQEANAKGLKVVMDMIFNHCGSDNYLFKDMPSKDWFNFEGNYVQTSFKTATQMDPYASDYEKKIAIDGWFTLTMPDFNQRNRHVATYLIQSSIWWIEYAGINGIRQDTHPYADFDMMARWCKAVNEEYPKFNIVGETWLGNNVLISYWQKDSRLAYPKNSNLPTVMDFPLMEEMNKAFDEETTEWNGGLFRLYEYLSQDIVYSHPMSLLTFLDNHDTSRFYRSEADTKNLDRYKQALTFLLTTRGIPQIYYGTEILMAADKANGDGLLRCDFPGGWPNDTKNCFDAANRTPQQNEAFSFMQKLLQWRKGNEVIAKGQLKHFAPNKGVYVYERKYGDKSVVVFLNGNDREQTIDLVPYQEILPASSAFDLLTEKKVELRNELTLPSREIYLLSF

Molecule	target or system	test	test system	setting	how to read	measurement	value
Fc1ccccc1Cc1nc(-c2nc(C(F)(F)F)n[nH]2)cn2ccnc12		item: Headache	healthy humans	oral, 10 mg, fasted, single dose		subjects with adverse events	7.1%
COC(=O)Nc1c(N)nc(-c2nn(Cc3ccccc3F)c3ncc(F)cc23)nc1N			human, plasma	oral, 2.5 mg, geometric mean, added: mefenamic acid		Cmax	73.6 ng/mL
COc1cc([C@@H]2c3cc4c(cc3[C@@H](O[C@@H]3O[C@@H]5CO[C@@H](C)O[C@H]5[C@H](O)[C@H]3O)[C@H]3COC(=O)[C@H]23)OCO4)cc(OC)c1O	TOP2B (Homo sapiens, UniProt Q02880)	decatenation		100 µM, replicate 2		decatenated DNA	83% and 100%
N#CCC1CCN(c2nc(Nc3ccc(N4CCC(O)CC4)cc3)c3c(=O)[nH]ncc3n2)CC1		vs placebo, Olink multiplex	human, serum	80 mg, day 29, unit not given	reference: placebo	IL-18 level difference	-1.67
susA (Bacteroides thetaiotaomicron, UniProt Q8A1G0)	O=[N+]([O-])c1ccc(O[C@H]2O[C@H](CO)[C@@H](O[C@H]3O[C@H](CO)[C@@H](O[C@H]4O[C@H](CO)[C@@H](O[C@H]5O[C@H](CO)[C@@H](O[C@H]6O[C@H](CO)[C@@H](O[C@H]7O[C@H](CO)[C@@H](O)[C@H](O)[C@H]7O)[C@H](O)[C@H]6O)[C@H](O)[C@H]5O)[C@H](O)[C@H]4O)[C@H](O)[C@H]3O)[C@H](O)[C@H]2O)cc1	steady-state kinetics		pH 7		Km	117 µM

Repeated from above:
Molecule	target or system	test	test system	setting	how to read	measurement	value
susA (Bacteroides thetaiotaomicron, UniProt Q8A1G0)	O=[N+]([O-])c1ccc(O[C@H]2O[C@H](CO)[C@@H](O[C@H]3O[C@H](CO)[C@@H](O[C@H]4O[C@H](CO)[C@@H](O[C@H]5O[C@H](CO)[C@@H](O[C@H]6O[C@H](CO)[C@@H](O[C@H]7O[C@H](CO)[C@@H](O)[C@H](O)[C@H]7O)[C@H](O)[C@H]6O)[C@H](O)[C@H]5O)[C@H](O)[C@H]4O)[C@H](O)[C@H]3O)[C@H](O)[C@H]2O)cc1	steady-state kinetics		pH 7		Km	117 µM
